# Measured values from different studies.
# Parts stem from different laboratories: compare values within a part only. Changes are numbered by the printed parent chain.
# Chain of UniProt P61077 (whole entry, looked up): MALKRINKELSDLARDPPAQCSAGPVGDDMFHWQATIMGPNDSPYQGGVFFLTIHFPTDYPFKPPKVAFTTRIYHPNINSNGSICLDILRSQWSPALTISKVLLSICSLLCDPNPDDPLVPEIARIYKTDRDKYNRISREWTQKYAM

# Series 1
# Target: RING finger protein unkempt homolog, zinc fingers 1-6, GST-SBP tag (UNK, Homo sapiens, UniProt Q9C0B0, residues 30-357)
# Chain of UniProt Q9C0B0 (30-357, looked up): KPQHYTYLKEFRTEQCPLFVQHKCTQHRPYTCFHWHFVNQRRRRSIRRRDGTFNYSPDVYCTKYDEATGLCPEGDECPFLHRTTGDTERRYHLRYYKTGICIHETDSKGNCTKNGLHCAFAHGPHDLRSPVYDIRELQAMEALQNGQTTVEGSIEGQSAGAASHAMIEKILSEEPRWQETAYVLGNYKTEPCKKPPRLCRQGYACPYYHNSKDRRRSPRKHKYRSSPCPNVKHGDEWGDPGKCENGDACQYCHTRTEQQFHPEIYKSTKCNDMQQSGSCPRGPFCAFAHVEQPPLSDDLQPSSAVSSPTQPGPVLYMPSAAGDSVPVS
# Method: RNA Bind-n-Seq
# Form: RNA
# Matrix: in vitro
# Tested at: not given
# Setting: RNA with constant flanks, ends assumed
# Relative to: input RNA pool
# Direction: higher = stronger binding
Oligonucleotide,bound/input enrichment
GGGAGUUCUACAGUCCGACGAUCAAUGUCCUUAAAGCAAUUGAGCAGGCUGAUCUACUGCAGGAGGAAGCUGAAACCCCACGCCGUGUUCUUGAAGAAAUUGGACUGACAUAACUCUCCUCCCUUGUUGAUGACUUCUUGUGGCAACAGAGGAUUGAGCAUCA,0.254 ratio
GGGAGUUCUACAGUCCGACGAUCUGUAAAUUACCUUUACUGUGUGUACAUUUUUACUGUAUUUGAGACAUUUUUUUGUGUGUGACCCGUUAAUUUUGCAGGAUGUGCCAUAUCAAUUGAACGGAACUAAAGUCUGUGACAGUGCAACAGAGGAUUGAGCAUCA,0.212 ratio
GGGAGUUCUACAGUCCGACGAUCGAAAGGGGUUCAUCUCAGAGACCAUAUCGAGAAUCUUCUGACAAUGAAGGUAGGCGUACAACCCGGAGAUUGCUGUCACGGAUAGCUUCUAGCAUGUCAUCUACUUUUUUCUCACGAAGACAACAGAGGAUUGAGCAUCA,0.121 ratio
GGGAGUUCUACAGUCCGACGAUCGAGCAUAGCAAGACUCCUGAGGAGAGGAACCUCACUUCCAGCCCGGCAAUGAAUGGGGACCCCGCUAAACUGGCUUGCUCUGAAGCACCUACCGACGUUUCCAAGACCUGGGUCACCUCACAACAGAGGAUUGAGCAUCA,0.118 ratio
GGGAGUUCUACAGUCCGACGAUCAGCAUUUUCCCCUGUUACCUUUAUAUUACACAAUCUGUUCUAUGGUAACAAUACAGAGGAGCGAGCCCGUUUACUGCACCAGUGUUAAUAGGAAAUUUCAGUAUAUCAUGAACAAAUCGACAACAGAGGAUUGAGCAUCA,0.583 ratio
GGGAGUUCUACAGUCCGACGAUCGGCAUGUUGGAUAUGUGCGGCUUUGAUACUGGAGCUCUGGAUGUAAUUCGAAAUUUCACAUCCGAUAUGAUUUAACCAUAAGCAGCAGCACGAUCCAGAGAUCCAUUGCCAUCAGUGAUCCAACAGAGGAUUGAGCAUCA,0.18 ratio
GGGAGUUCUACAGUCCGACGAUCUAUGGCAUCUCCCUUGCUUGCUGCAGCAGGGAUGGAAGAAAUGUCACUUUCUUUUUAAGCCCGCAAGCUUUUUCUUUUUCUUUUUCUUCUUCUAUUUAAAAAUUCUAAUCAUGGAUGCUUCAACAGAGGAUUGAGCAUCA,4.76 ratio
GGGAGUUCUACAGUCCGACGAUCAAAGGACUUACUGAGCAGCAAAAGGAAGGCAUCCGCAUGGUGACAAGGGUGAUGCUGUCCUCCGAAGGCGAAGACGGGCUGGAUGAAAUUUAUUCCUUCAGUGAGAGUCUACGACAACUGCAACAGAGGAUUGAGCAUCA,0.257 ratio

# Series 2
# Target: PABPC1L2, full length, GST fusion (mouse, UniProt A0ABA7IW68)
# Method: RNAcompete
# Form: RNA
# Matrix: in vitro
# Tested at: 20 nM
# Setting: 7-mer, probes averaged, single round
# Relative to: mean of 7-mers
# Direction: higher = stronger binding
# Construct (chain): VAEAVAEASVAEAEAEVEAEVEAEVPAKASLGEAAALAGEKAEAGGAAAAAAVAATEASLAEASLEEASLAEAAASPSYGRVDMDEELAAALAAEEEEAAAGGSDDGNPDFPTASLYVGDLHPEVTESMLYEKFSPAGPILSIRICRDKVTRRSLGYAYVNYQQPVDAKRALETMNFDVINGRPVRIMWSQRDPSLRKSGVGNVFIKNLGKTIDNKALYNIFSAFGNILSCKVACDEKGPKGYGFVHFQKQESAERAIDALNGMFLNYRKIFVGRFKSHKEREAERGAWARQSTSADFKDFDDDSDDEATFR
Oligonucleotide,7-mer Z-score
UAGACGC,-0.199
UGGCUCA,-0.0573
CCUCUGU,-0.396
GCGGUCU,-0.155
AGGUCUC,-0.248
CUUCAGA,-0.175
UUGACAA,-0.106
GCUUACA,0.00798

# Further values, each from its own experiment
# B1: MAP3K1 RING domain (UniProt Q13233); chain NSIKDEEEQMCPICLLGMLDEESLTVCEDGCRNKLHHHCMSIWAEECRRNREPLICPLCRSKWRSHDFYS
# P1: viral docking peptide; KGVKRKLFAEDSS; partner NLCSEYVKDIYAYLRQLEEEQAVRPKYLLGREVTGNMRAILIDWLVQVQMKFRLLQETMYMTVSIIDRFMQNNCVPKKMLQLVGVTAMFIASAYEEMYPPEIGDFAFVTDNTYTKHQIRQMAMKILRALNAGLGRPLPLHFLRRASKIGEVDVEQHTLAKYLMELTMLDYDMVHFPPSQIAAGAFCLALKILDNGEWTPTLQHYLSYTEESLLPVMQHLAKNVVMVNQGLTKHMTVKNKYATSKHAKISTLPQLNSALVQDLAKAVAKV
Molecule,tested on,test,system,setting,scale,quantity,result
"WDR46 (Homo sapiens, UniProt O15213)","UTP14A (Homo sapiens, UniProt Q9BVJ6)",cross-linking MS,,hits only,,interaction screen,cross-linked
B1 (MAP3K1 RING domain),UBE2D3 UBC core domain (UniProt P61077),yeast two-hybrid,yeast,mostly zero background,"relative to: not given, higher = stronger interaction",lacZ reporter activity,13600
"PDIA4 (Homo sapiens, UniProt P13667)","HSP90B1 (Homo sapiens, UniProt P14625)",cross-linking MS,,hits only,,interaction screen,cross-linked
P1 L7A,"CCNB1, cyclin fold, Cln2 fusion (human)","yeast growth competition, sequencing",yeast,strong parent motif,"relative to: not given, higher = stronger binding",normalised enrichment score,-0.219

# A few entries again (series 2):
Oligonucleotide,7-mer Z-score
UGGCUCA,-0.0573
AGGUCUC,-0.248
UUGACAA,-0.106
